Assay results collected from several papers.
Each numbered part is a random draw from the data of one study; scales do not carry over between parts. Several values in a cell are separate wells, animals, samples, runs or records.
Chain of UniProt Q05655 (whole entry, looked up): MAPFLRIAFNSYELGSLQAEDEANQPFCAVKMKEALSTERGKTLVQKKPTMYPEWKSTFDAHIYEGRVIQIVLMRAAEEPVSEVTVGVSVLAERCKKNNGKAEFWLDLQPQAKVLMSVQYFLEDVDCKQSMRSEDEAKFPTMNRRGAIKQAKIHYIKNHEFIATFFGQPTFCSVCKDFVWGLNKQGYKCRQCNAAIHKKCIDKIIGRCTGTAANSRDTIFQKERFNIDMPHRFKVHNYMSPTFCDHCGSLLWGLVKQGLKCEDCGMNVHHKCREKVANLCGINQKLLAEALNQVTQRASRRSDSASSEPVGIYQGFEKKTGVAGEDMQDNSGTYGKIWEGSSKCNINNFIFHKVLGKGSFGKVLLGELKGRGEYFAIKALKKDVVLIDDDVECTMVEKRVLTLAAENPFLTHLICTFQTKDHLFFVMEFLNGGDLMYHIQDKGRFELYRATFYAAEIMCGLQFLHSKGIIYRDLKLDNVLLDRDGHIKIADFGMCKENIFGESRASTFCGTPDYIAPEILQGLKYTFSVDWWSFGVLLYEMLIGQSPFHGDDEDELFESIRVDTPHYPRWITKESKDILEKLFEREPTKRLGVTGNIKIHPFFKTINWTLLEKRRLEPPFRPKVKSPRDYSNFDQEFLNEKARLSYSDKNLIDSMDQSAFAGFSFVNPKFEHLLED
Chain of UniProt P54756 (whole entry, looked up): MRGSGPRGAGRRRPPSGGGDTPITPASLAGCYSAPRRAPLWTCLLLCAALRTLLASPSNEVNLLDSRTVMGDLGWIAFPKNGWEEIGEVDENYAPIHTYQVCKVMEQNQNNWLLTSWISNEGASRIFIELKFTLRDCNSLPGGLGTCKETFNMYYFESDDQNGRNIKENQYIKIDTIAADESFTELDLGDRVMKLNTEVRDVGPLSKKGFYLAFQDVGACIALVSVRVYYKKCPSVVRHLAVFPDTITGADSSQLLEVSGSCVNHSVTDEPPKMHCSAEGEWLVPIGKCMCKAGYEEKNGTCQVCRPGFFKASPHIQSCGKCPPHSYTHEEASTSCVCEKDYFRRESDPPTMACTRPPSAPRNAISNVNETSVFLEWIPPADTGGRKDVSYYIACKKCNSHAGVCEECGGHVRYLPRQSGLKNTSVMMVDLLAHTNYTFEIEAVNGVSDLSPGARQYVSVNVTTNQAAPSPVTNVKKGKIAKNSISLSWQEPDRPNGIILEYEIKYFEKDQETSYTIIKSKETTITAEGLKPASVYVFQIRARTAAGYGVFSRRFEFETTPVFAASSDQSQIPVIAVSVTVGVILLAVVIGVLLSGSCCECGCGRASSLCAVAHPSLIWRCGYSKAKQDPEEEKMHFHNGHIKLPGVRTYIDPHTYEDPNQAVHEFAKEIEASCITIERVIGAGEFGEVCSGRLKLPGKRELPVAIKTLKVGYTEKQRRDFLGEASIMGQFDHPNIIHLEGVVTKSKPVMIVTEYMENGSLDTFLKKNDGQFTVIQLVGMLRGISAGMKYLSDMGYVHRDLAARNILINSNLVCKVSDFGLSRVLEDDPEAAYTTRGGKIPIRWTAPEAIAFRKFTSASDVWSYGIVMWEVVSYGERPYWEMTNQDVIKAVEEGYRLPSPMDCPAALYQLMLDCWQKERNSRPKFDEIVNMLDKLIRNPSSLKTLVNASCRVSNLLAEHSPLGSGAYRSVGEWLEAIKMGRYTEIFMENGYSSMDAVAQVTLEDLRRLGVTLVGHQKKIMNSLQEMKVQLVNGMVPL
Chain of UniProt Q06187 (whole entry, looked up): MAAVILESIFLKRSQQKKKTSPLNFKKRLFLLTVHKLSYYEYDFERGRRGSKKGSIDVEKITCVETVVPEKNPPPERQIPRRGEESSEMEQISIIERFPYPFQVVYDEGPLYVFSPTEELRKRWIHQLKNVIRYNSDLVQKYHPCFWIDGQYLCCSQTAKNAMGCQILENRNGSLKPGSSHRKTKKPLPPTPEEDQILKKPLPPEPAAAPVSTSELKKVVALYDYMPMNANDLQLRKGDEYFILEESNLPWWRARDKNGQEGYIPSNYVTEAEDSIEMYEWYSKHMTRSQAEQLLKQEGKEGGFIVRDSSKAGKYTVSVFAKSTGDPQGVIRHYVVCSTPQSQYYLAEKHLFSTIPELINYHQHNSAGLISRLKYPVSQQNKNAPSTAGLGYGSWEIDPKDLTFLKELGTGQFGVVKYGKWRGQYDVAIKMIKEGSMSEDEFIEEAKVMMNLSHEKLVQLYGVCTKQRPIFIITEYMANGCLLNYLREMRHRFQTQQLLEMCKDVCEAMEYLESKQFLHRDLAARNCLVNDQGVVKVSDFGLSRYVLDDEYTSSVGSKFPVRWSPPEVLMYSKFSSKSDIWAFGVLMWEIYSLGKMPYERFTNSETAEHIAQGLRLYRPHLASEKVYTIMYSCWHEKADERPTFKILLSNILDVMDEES
Chain of UniProt Q9Y243 (whole entry, looked up): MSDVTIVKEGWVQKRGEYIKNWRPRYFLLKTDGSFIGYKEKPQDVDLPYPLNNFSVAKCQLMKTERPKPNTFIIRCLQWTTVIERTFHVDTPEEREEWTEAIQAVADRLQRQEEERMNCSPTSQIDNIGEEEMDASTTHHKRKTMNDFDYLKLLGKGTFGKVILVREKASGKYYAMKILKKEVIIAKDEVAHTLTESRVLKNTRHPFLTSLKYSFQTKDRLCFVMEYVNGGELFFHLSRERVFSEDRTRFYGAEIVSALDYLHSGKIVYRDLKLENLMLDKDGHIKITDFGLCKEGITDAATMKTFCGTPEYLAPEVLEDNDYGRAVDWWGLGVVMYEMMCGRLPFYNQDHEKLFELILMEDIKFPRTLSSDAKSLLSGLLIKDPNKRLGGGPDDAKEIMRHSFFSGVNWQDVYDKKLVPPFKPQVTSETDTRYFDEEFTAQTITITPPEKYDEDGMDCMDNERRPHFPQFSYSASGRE
Chain of UniProt O15264 (whole entry, looked up): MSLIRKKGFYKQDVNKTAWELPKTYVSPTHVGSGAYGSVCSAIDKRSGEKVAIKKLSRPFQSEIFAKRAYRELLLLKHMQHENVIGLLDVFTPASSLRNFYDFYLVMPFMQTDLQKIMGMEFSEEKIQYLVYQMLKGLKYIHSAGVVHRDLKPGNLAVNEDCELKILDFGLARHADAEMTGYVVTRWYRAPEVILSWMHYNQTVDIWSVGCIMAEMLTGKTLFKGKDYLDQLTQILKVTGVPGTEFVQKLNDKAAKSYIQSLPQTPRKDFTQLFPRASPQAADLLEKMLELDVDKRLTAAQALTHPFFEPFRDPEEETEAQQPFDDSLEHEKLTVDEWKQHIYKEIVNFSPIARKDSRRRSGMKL
Chain of UniProt Q9HBH9 (whole entry, looked up): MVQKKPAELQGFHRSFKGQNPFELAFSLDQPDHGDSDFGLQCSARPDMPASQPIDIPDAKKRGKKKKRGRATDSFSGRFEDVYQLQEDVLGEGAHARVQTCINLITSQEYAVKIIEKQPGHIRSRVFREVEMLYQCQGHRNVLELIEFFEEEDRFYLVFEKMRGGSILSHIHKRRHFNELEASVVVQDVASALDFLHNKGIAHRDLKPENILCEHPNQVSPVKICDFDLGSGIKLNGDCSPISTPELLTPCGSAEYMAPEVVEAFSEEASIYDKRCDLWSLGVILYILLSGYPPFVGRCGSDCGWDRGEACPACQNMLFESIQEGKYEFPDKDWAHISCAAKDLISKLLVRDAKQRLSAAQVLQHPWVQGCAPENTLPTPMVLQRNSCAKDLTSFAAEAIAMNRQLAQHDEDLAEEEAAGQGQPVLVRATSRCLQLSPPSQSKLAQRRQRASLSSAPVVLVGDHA
Chain of UniProt P10721 (whole entry, looked up): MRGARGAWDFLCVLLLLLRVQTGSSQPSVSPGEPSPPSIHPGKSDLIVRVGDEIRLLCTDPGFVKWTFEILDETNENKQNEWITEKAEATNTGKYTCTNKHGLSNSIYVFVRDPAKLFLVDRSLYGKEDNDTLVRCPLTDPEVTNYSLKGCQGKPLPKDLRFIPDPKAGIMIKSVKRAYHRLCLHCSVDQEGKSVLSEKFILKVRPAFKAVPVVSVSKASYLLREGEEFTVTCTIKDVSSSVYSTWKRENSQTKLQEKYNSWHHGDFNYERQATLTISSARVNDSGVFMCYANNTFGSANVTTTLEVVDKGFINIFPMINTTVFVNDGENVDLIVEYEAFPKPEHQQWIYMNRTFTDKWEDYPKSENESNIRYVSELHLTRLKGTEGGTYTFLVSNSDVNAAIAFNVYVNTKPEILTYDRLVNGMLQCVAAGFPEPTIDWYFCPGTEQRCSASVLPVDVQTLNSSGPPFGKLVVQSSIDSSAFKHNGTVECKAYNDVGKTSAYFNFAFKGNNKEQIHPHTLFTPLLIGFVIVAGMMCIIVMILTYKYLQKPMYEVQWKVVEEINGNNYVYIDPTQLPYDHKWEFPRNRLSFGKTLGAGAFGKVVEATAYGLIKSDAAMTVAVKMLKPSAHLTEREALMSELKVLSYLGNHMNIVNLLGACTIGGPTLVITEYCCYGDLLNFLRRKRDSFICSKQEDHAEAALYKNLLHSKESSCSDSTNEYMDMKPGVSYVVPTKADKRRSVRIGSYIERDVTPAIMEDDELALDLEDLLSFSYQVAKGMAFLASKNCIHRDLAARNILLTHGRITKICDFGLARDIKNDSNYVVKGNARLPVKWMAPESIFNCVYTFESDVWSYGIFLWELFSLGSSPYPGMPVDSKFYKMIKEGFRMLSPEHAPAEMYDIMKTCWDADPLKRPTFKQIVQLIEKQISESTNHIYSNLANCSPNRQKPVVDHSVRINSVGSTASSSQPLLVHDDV
Chain of UniProt P48729 (whole entry, looked up): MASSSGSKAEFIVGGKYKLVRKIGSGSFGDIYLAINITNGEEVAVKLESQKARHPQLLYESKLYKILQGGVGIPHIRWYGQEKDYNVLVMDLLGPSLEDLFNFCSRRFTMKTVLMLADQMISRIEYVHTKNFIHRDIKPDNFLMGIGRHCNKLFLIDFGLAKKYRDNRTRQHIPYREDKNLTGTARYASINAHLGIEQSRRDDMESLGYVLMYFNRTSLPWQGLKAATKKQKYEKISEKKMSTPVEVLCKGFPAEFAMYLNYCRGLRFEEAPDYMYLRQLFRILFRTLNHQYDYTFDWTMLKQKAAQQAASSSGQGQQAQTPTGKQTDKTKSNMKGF

Series 1
Cell line: A-375
Tested at: 100 µM
Time: 18 h
SMILES | viability [%]
Nc1ccccc1S(N)(=O)=O | 97.5
CC1=C(/C=C/C(C)=C/C=C/C(C)=C/C(=O)O)C(C)(C)CCC1 | 62.1
C/C(=C\C(=O)OCCCCCCCCC(=O)O)C[C@@H]1OC[C@H](C[C@@H]2O[C@H]2[C@@H](C)[C@H](C)O)[C@@H](O)[C@H]1O | 92.5
C[C@@H](NCCCc1cccc(C(F)(F)F)c1)c1cccc2ccccc12 | 8.28
CC1(C)O[C@@H]2[C@@H](CO[C@@]3(COS(N)(=O)=O)OC(C)(C)O[C@@H]23)O1 | 95.6
CC(C)(C)NCC(O)COc1cccc2c1C[C@H](O)[C@H](O)C2 (mixture of isomers) | 106
CCC(=O)NCC[C@@H]1CCc2ccc3c(c21)CCO3 | 85.7
CN1C2=CC(=O)/C(=N\NC(N)=O)C=C2CC1S(=O)(=O)O (stereo not drawn) | 107
CO[C@]12C[C@@H](COC(=O)c3cncc(Br)c3)CN(C)[C@@H]1Cc1cn(C)c3cccc2c13 | 10.3
O=C(O)c1ccccc1OP(=O)(O)O | 90.4
O=C(O)C1=C(CSc2nnnn2CS(=O)(=O)O)CS[C@@H]2[C@H](NC(=O)[C@H](O)c3ccccc3)C(=O)N12 | 94.6
CNCC(O)c1ccc(OC(=O)C(C)(C)C)c(OC(=O)C(C)(C)C)c1 (stereo not drawn) | 69.5
CC(C)(C)NCC(O)c1cc(O)cc(O)c1 (stereo not drawn) | 103
N#C[C@@H]1C[C@@H]2C[C@@H]2N1C(=O)[C@@H](N)C12CC3CC(CC(O)(C3)C1)C2 | 96
C[C@@H](O)[C@H]1C(=O)N2C(C(=O)O)=C(SCCN=CN)C[C@H]12 | 107

Series 2
Cell line: normal organoid sample D
Technique: CellTiter-Glo
Host: human
Sample: normal-adjacent epithelium
Tested at: 1 µM
Reference: DMSO
Structure (SMILES) | viability
Cc1c(C(=O)O)cc(-c2ccc(C3CCNCC3)cc2)c2ccc(-c3ccc(C(F)(F)F)cc3)cc12 | 117% and 111%
Cc1cnc(-c2cc(Cl)ccc2F)cc1-n1c(=O)n(CC(N)=O)c2cnccc21 | 107% and 130%
O=C(N1CCS(=O)(=O)CC1)N1C[C@H](c2ccc(OC(F)(F)F)cc2)C[C@H](c2nc(C3CC3)no2)C1 | 154% and 115%
CC(=O)N1CCC(c2ccc(C(=O)NC(=N)N)cc2C(F)(F)F)CC1 | 104% and 114%
O=C(Nc1cnc(Oc2ccc(F)cc2)nc1)N1CCc2ncccc2[C@@H]1c1ccc(F)cc1 | 144% and 134%
CO[C@@H](C)c1c(Nc2ccc([C@@H](N(C)C(=O)C3CCS(=O)(=O)CC3)C(F)(F)F)cc2)cnc2cc(Cl)nn12 | 100% and 114%
O=c1nc(-c2ccccn2)sc2ccccc12 | 130% and 103%
C[C@H](NC(=O)Nc1cc2[nH]ncc2c(CO)n1)c1ccccn1 | 104% and 79.5%
CN([C@@H]1CCc2c(CC(=O)O)c3ccccc3n2C1)S(=O)(=O)c1ccc(F)cc1 | 113% and 102%
CC(=O)c1c(NS(C)(=O)=O)c2cc(-c3ccc(Cl)cc3)c(-c3ccc(Cl)cc3Cl)nc2n(C)c1=O | 98% and 88.9%
CC1=C(C#N)C(c2ccc3[nH]nc(C)c3c2)C(C#N)=C(C)N1 | 116% and 100%
CC(=O)Nc1c(C(C)=O)c(=O)n(C)c2nc(-c3ccc(Cl)cc3Cl)c(-c3ccc(Cl)cc3)cc12 | 127% and 100%

Series 3
Cell line: mouse MPNST tumor cells
Technique: high-content nuclear imaging
Refers to: cell number
Tested at: 10 µM
Time: 12 h
Setting: mean of 2 replicates
Reference: plate mean
Direction: higher = more cells
SMILES | nuclei count
Clc1ccc(Nc2nnc(Cc3ccncc3)c3ccccc23)cc1 | 3.18 z-score and 3.89 z-score
CC(=O)OCC(=O)[C@@]12OC(C)(C)O[C@@H]1C[C@H]1[C@@H]3C[C@H](F)C4=CC(=O)C=C[C@]4(C)[C@@]3(F)[C@@H](O)C[C@@]12C | 4.29 z-score
O=C(CCc1ccncc1)NNC(=O)N1Cc2ccccc2Oc2ccc(Cl)cc21 | 0.337 z-score
COc1ccc(C(=O)Nc2c(Cl)cncc2Cl)cc1OC1CCCC1 | 1.6 z-score
COc1cc(SC)ccc1C(=O)N1CCC(Cc2ccccc2)CC1 | 2.05 z-score
NC(=O)c1cccc(-c2cc(Nc3ccc(OC(F)(F)F)cc3)ncn2)c1 | 5.01 z-score
CCCS(=O)(=O)c1nc(NC2CC2)cc(-c2ccc3c(ccn3C3CC(C)(C)NC(C)(C)C3)c2)n1 | -6.28 z-score
Oc1ccc(/C=C/c2cc(O)cc(O)c2)cc1 | -2.52 z-score
N#Cc1ccc(-c2ccc(S(=O)(=O)Nc3cccc(N)n3)cc2)cc1 | 0.315 z-score
Cc1cc(O)c(C(=O)N[C@@H](C(=O)N[C@@H]2C(=O)N3C(C(=O)O)=C(CSc4nnnn4C)CS[C@H]23)c2ccc(O)cc2)cn1 | 0.197 z-score
N=C(N)N/N=C/c1c(Cl)cccc1Cl | -0.948 z-score

Series 4
SMILES: O=c1cc(N2CCOCC2)oc2c1ccc1ccccc12
Effect on: enzyme activity
Action: inhibitor
Tested at: 0.5 µM
Reference: control
target | remaining activity [%]
MAP4K2 (Homo sapiens, UniProt Q12851) | 118
Cyclin-dependent kinase 9, with cyclin T1 (CDK9, Homo sapiens, UniProt P50750) | 99.1
AKT3 (Homo sapiens, UniProt Q9Y243) | 98.3
MAPK13 (Homo sapiens, UniProt O15264) | 99.8
KIT (Homo sapiens, UniProt P10721) | 105
NEK4 (Homo sapiens, UniProt P51957) | 97.4
EPHA5 (Homo sapiens, UniProt P54756) | 110
CSNK2A1 (Homo sapiens, UniProt P68400) | 70.9
MKNK2 (Homo sapiens, UniProt Q9HBH9) | 88.5
PLK2 (Homo sapiens, UniProt Q9NYY3) | 106
MAP2K6 (Homo sapiens, UniProt P52564) | 94.1
LYN (Homo sapiens, UniProt P07948) | 102
IRAK4 (Homo sapiens, UniProt Q9NWZ3) | 122
WNK2 (Homo sapiens, UniProt Q9Y3S1) | 103
CSNK1A1 (Homo sapiens, UniProt P48729) | 115
PRKCD (Homo sapiens, UniProt Q05655) | 95.1
MAPK12 (Homo sapiens, UniProt P53778) | 97.4
LRRK2 (Homo sapiens, UniProt Q5S007) | 96.9
CHEK1 (Homo sapiens, UniProt O14757) | 104
PRKCI (Homo sapiens, UniProt P41743) | 95.5
PRKG1 (Homo sapiens, UniProt Q13976) | 94.6
BTK (Homo sapiens, UniProt Q06187) | 112
